Results from different studies.
Compare with care: the assays were run in different laboratories. “And” joins repeats or separate records; there may be more than shown. ± gives the spread as reported. Values after ≈ are worked out from the molar mass of the structure shown.
BCHE: Cholinesterase (BCHE, Homo sapiens, UniProt P06276)
Chain of UniProt P06276 (whole entry, looked up): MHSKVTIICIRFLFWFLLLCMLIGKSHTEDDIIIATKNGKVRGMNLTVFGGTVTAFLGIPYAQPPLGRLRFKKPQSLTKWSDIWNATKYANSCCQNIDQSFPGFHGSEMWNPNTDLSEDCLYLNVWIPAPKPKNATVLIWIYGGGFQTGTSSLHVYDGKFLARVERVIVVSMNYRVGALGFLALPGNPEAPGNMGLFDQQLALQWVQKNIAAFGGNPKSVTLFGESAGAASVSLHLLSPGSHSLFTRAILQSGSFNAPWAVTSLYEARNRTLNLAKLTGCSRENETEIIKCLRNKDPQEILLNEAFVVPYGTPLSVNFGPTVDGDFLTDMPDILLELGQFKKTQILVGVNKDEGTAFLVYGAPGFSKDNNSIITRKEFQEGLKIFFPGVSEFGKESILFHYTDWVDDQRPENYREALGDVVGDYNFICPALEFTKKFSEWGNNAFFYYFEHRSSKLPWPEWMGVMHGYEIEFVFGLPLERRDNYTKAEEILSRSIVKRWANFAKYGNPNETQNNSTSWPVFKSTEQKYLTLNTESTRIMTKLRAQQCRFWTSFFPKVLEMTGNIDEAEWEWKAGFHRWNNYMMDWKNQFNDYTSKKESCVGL
Chain of UniProt O75116 (whole entry, looked up): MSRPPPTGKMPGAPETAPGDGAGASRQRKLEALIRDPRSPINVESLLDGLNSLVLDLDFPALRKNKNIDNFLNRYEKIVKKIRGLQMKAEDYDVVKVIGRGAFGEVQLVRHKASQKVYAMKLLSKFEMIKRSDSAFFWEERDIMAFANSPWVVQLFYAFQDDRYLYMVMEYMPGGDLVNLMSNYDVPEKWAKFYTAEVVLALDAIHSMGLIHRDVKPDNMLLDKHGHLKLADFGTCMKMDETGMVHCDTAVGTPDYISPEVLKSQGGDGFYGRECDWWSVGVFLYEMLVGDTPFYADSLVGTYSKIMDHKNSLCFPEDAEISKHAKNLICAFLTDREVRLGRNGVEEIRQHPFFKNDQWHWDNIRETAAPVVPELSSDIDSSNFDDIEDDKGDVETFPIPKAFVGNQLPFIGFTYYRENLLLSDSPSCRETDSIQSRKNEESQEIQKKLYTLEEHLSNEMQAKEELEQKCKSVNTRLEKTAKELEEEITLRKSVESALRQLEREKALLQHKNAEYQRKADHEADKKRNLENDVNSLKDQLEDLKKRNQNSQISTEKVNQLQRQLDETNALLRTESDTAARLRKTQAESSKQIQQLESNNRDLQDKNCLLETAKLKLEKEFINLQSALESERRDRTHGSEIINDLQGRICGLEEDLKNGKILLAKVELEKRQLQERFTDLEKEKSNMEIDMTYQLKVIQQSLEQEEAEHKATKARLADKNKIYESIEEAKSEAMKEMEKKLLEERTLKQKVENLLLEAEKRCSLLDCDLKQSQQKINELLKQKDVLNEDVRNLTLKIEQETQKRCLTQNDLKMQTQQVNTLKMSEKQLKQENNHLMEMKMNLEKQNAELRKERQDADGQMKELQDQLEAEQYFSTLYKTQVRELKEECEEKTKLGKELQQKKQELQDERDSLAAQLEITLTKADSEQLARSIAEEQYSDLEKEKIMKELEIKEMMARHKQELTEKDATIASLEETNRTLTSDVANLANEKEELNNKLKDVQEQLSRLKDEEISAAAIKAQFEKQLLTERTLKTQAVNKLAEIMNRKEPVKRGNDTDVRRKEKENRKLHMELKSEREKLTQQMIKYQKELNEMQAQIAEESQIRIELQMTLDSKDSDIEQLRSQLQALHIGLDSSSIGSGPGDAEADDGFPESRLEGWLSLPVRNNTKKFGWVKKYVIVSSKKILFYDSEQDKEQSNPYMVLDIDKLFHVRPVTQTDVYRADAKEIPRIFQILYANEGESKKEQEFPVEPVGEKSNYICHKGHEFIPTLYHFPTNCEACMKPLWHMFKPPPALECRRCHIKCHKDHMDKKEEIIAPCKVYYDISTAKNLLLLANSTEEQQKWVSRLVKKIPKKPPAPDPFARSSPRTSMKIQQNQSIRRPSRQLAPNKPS
Chain of UniProt P35968 (whole entry, looked up): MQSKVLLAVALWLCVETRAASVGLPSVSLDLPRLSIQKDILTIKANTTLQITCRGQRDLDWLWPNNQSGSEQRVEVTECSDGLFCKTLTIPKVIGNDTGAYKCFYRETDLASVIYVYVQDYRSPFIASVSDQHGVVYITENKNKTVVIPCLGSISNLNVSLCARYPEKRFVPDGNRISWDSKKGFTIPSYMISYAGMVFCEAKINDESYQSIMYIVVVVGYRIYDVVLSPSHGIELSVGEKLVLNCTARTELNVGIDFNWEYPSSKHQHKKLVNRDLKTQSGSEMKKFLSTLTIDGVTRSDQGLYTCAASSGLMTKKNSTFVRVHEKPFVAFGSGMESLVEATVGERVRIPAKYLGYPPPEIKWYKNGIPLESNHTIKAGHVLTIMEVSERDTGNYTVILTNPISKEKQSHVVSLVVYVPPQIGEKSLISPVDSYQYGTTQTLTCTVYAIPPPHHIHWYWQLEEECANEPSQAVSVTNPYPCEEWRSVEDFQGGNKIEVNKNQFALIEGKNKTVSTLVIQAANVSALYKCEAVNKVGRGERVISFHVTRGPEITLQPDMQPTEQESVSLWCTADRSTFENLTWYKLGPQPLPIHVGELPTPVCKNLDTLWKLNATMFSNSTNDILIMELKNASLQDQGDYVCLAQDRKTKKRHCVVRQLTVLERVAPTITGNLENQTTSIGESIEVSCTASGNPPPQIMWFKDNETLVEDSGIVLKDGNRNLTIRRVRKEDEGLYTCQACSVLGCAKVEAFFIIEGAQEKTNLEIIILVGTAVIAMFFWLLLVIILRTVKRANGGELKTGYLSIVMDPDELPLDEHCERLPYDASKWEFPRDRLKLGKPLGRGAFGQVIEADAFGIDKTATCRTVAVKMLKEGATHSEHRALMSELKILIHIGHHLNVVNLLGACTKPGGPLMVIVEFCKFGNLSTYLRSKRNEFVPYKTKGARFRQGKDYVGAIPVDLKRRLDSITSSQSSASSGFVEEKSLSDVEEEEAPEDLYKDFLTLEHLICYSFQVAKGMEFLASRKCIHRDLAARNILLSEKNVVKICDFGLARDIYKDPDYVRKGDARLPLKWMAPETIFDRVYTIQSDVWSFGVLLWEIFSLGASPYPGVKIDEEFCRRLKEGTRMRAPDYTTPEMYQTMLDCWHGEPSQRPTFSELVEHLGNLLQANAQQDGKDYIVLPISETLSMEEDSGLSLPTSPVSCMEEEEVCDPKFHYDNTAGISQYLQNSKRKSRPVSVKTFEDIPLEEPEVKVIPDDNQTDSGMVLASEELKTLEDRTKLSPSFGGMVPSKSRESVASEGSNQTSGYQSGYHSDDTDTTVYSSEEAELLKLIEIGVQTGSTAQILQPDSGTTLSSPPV

With `CC1(C(=O)O)C2CCC(O2)C1(C)C(=O)O` (stereo not drawn) the IC50 was 2000 nM (Plasmodium falciparum; D10).
`Cc1noc(-c2cccs2)c1C(=O)NC(C)c1cccc2ccccc12` (stereo not drawn) has an EC50 of 42 ± 2.1 nM (Plasmodium falciparum; parasite growth; Dd2).
`COCCn1c2nc(=O)n(-c3ccccc3)c(=O)c-2nc2ccccc21` has an EC50 of 200 nM (Zika virus; viral replication, plaque reduction; Vero, Venus reporter).
The EC50 of `Cc1sc(CNCCCNc2cc(=O)c3ccccc3[nH]2)c(I)c1C` is reported as less than 10 nM (Plasmodium falciparum; parasite growth, SYBR Green; 3D7 wild type; 72 h).
With `CN(C)CCCC1(c2ccc(F)cc2)OCc2cc(C#N)ccc21` (stereo not drawn) the IC50 was 1580 nM (Plasmodium falciparum; GB4).
For `CC[C@H](C)[C@@H]1NC(=O)[C@@H]2CCCN2C(=O)[C@H](CC(C)C)NC(=O)[C@H](CC(C)C)NC(=O)CNC(=O)[C@@H](NC(=O)[C@@H](NC(=O)[C@H](CC(=O)O)NC(=O)CNC(=O)[C@@H](NC(=O)[C@H](C)NC(=O)CNC(=O)[C@H](CCCCN)NC(=O)[C@H](CC(C)C)NC(=O)[C@H](CC(C)C)NC(=O)[C@H](CCCCN)NC(=O)CNC(=O)[C@@H](NC(=O)[C@@H](N)CC(C)C)C(C)C)C(C)C)C(C)C)CSSC[C@@H](C(=O)O)NC1=O`, “log2 fold change” read -2.36 (RNA-seq, refers to: Igtp mRNA; mouse traumatic brain injury, frontal cortex and hippocampus; dose not given; reference: TBI plus compound vs TBI).
For `N=C(N)NCCC[C@H](NC(=O)CCCCCNC(=O)[C@H](CCCNC(=N)N)NC(=O)[C@H](CCCNC(=N)N)NC(=O)CCCCCNC(=O)[C@H](CCCNC(=N)N)NC(=O)[C@H](CCCNC(=N)N)NC(=O)CCCCCNC(=O)[C@H](CCCNC(=N)N)NC(=O)[C@H](CCCNC(=N)N)NC(=O)CCCCCNC(=O)[C@@H](N)CCCNC(=N)N)C(=O)NCCCCCC(=O)NCCC(=O)O`, the MIC was 48 µM (≈ 91.4 µg/mL) (broth microdilution; ATCC 1720 resistant strain, Mueller-Hinton broth).
With `CC[C@H](C)[C@H](NC(=O)[C@H](Cc1ccccc1)NC(=O)[C@H](CCC(=O)O)NC(=O)[C@H](CCCNC(=N)N)NC(=O)[C@H](C)NC(=O)[C@H](C)NC(=O)[C@H](CCC(N)=O)NC(=O)[C@H](CCC(=O)O)NC(=O)[C@H](CCC(=O)O)NC(=O)[C@H](CC(C)C)NC(=O)[C@H](Cc1ccc(O)cc1)NC(=O)[C@H](CO)NC(=O)[C@H](CO)NC(=O)[C@@H](NC(=O)[C@H](CC(=O)O)NC(=O)[C@H](CO)NC(=O)[C@@H](NC(=O)[C@H](Cc1ccccc1)NC(=O)[C@@H](NC(=O)CNC(=O)[C@H](CCC(=O)O)NC(=O)[C@H](C)NC(=O)CCc1c[nH]cn1)[C@@H](C)O)[C@@H](C)O)C(C)C)C(=O)N[C@@H](C)C(=O)N[C@@H](Cc1c[nH]c2ccccc12)C(=O)N[C@@H](CC(C)C)C(=O)N[C@H](C(=O)N[C@@H](CCCNC(=N)N)C(=O)NCC(=O)N[C@@H](CCCNC(=N)N)C(=O)N[C@@H](CCCCNC(=O)COCCOCCNC(=O)COCCOCCNC(=O)CC[C@H](NC(=O)CCCCCCCCCCCCCCCCC(=O)O)C(=O)O)C(=O)NCC(=O)NCC(=O)N[C@@H](CO)C(=O)N[C@@H](CCCCNc1c(NCCCCCN(O)C(=O)CCC(=O)NCCCCCN(O)C(=O)CCC(=O)NCCCCCN(O)C(C)=O)c(=O)c1=O)C(=O)O)C(C)C` [zirconium-89 labelled] the tissue uptake was 0.23 %ID/g (rat, blood; iv, 3 nmol/kg, 24 h, ex vivo).
With `COc1ccc(-n2ccnc2SCC(=O)Nc2cccc(C(F)(F)F)c2)c(OC)c1` the EC50 was 163 ± 50 nM (Plasmodium falciparum; parasite growth, SYBR Green; 3D7 wild type; 72 h).
`C#CCN(C)[C@H](C)Cc1ccccc1` — result for “corridor crossing time”: 7.87 s and 6.99 s and 5.86 s and 6.33 s and 5.16 s and 4.04 s and 5.22 s (footprint test; MPTP-induced Parkinson's disease mouse model; 10 mg/kg, trial 2).
For `O=C(O)C1=CC(=C(c2ccc(O)c(C(=O)O)c2)c2ccc(O)c(C(=O)O)c2)C=CC1=O`, the IC50 was 10000 nM (Plasmodium falciparum; D10).
`COc1ccc(N2C(=O)N(c3c(C)cccc3Cl)Cc3cnc(Nc4ccc(C5CCN(C)CC5)cc4OC)nc32)nc1` has an inhibition of 35% (KDR (Homo sapiens, UniProt P35968); kinase activity; 0.5 µM).
`c1ccc(C(NCCNC(c2ccccc2)c2ccccc2)c2ccccc2)cc1` has an inhibition of 43% (5-HT4 receptor, guinea pig; binding; 10 µM, Eurofins selectivity panel).
For `Cc1nnc(NN)c2c1[nH]c1ccccc12`, the IC50 was greater than 100000 nM (Gag-Pol polyprotein, integrase (gag-pol, Human immunodeficiency virus 1, UniProt P12497); strand transfer activity, inhibitor; wild-type integrase).
`C[C@H]1CN(c2n[nH]c3nc(N[C@H]4CC[C@H](NS(=O)(=O)CCC(F)(F)F)CC4)ncc23)CCO1` has a relative abundance of 0.99 (ROCK2 (Homo sapiens, UniProt O75116); inhibitor, Kinobeads competition profiling; 0.8 µM; reference: vehicle).
`COc1ccc2c(c1)[nH]c1c(C)nccc12` gave a methylation reduction of 0% (DU-145; bisulfite pyrosequencing, refers to: RASSF1A promoter CpG site 5; concentration not given; reference: vehicle).
For `CCOc1cccc(=O)c2c(C)n(Cc3ccc(Cl)cc3)c(C)c12`, the EC50 was 164 ± 110 nM (Plasmodium falciparum; parasite growth).
With `CC(C)[C@@H]1NC(=O)[C@@H](CCCNC(=N)N)NC(=O)[C@H]([C@@H](C)O)NC(=O)[C@@H](CCCNC(=N)N)NC(=O)[C@H](Cc2ccccc2)NC(=O)[C@@H](Cc2ccccc2)NC1=O` the IC50 was greater than 16 µg/mL (Naegleria fowleri; trophozoites).
With `Nc1ccn(C[C@@H](CO)OCP(=O)(O)O)c(=O)n1` the infection was 80% and 70% and 57.8% (Fowlpox virus; viral infection; CEF; 50 µM; reference: untreated).
The LC50 of `COc1cc(CCC[P+](c2ccccc2)(c2ccccc2)c2ccccc2)c(OC)c2c1OCO2.[I-]` is reported as -4.13 log M (IGROV-1; SRB).
`CNC(=O)c1cc(Cl)cc(C)c1NC(=O)c1cc(Br)nn1-c1ncccc1Cl`: “corrected larval mortality” 79.2% (Spodoptera litura; Brassica oleracea field; 25 ppm, 72 h, 5% water-dispersible granule).
With `O=C(NC12CC3CC(CC(C3)C1)C2)c1cc(-c2ccc(Cl)cc2Cl)c[nH]1` the IC50 was greater than 64 µg/mL (Vero; 48 h).
`CC(C)[C@@H]1NC(=O)[C@@H](Cc2ccccc2)NC(=O)[C@H](Cc2ccccc2)NC(=O)[C@@H]([C@H](C)O)NC(=O)[C@H]([C@@H](C)O)NC(=O)[C@@H](CCCNC(=N)N)NC1=O` gave an IC90 of greater than 16 µg/mL (Acanthamoeba castellanii; trophozoites).
`COC(=O)c1c(-c2cc(OC)c(OC)c(OC)c2)c2ccc(OCc3ccccn3)cc2c(=O)n1-c1ccc(N)cc1` has an IC50 of 794 nM (Plasmodium falciparum; 7G8).
With `C[N+](C)(CCOc1ccccc1)Cc1cccs1` the IC50 was 4620 ± 1360 nM (BCHE; inhibitor, fluorometric).
For `COc1c(CCC[P+](c2ccccc2)(c2ccccc2)c2ccccc2)cc2c(c1OC)OCO2.[I-]`, the TGI was -5.48 log M (A498; SRB).
`Nc1ncnc2c1ncn2[C@@H]1O[C@@H]2COP(=O)(O)O[C@H]3[C@@H](O)[C@H](n4cnc5c(=O)[nH]cnc54)O[C@@H]3COP(=O)(O)O[C@H]2[C@H]1O` — result for “pathway fold enrichment”: 19.8 (HFF-1; RNA sequencing, refers to: Cell-extracellular matrix interactions; downregulated pathway; reference: Zika virus alone).
With `O=C(NC1CC1)c1ccc(N2CCOc3ccc(Cl)cc32)s1` the EC50 was 779 ± 370 nM (Plasmodium falciparum; parasite growth, SYBR Green; 3D7 wild type; 72 h).
With `C[C@@H](O)[C@@H]1NC(=O)[C@H](Cc2ccccc2)NC(=O)[C@@H](Cc2ccccc2)NC(=O)[C@H]([C@@H](C)O)NC(=O)[C@@H](CCCN)NC(=O)[C@H](CCCN)NC(=O)[C@@H](CCCCN)NC1=O` the IC90 was greater than 16 µg/mL (Acanthamoeba castellanii; trophozoites).
The serum HDL-C of `CCCCC1(CCCC)CN(c2ccccc2)c2cc(SC)c(OCC(=O)N[C@@H](C(=O)NCC(=O)O)c3ccccc3)cc2S(=O)(=O)C1` is reported as 51 mg/dL (refers to: HDL cholesterol; human, serum; 20 mg once daily, day 11).
For `CN(C)c1ccc(O)c2c1C[C@H]1C[C@H]3[C@H](N(C)C)C(O)=C(C(N)=O)C(=O)[C@@]3(O)C(O)=C1C2=O`, the IC50 was 3980 nM (Plasmodium falciparum; Dd2).
For `C[C@@H](C1=C(CCN(C)C)Cc2ccccc21)c1ccccn1`, the IC50 was 5990 ± 1500 nM (BCHE; inhibitor; with Triton).
`C[C@H]1c2cccc(O)c2C(=O)C2=C(O)[C@]3(O)C(=O)C(C(N)=O)=C(O)[C@@H](N(C)C)[C@@H]3[C@@H](O)[C@@H]21` has an IC50 of 1260 nM (Plasmodium falciparum; 3D7).
The tissue uptake of `CC(C)C[C@@H]1NC(=O)[C@H](CC(C)C)NC(=O)[C@H](Cc2c[nH]c3ccccc23)NC(=O)[C@H](CO)NC(=O)[C@H](Cc2c[nH]c3ccccc23)NC(=O)[C@@H]2CCCN2C(=O)[C@H](CC(C)C)NC(=O)[C@H](Cc2c[nH]cn2)NC(=O)[C@@H]2CCCN2C(=O)[C@H](CC(N)=O)NC(=O)[C@H](C)NC(=O)[C@H](Cc2ccc(O)cc2)NC(=O)[C@H](CS)NC(=O)[C@H](CCCCNC(=O)CN2CCN(CC(=O)O)CCN(CC(=O)O)CCN(CC(=O)O)CC2)NC1=O` [lutetium-177 labelled] is reported as 0.02 %ID (Balb/c mouse, female, 4T1 tumour, heart; intravenous, 3.7 MBq, 24 h).
`CC1=C(C)C(=O)C(CCCCC#CCCCC#CCO)=C(C)C1=O` gave an IC50 of 3160 nM (Plasmodium falciparum; GB4).
The mRNA level of `C[C@H]1O[C@@H](O[C@H]2CC[C@@]3(C)[C@@H](CC[C@]4(C)[C@@H]3C=C[C@]35OC[C@@]6(CCC(C)(C)C[C@H]63)[C@@H](O)C[C@]54C)[C@]2(C)CO)[C@H](O)[C@@H](O[C@@H]2O[C@H](CO)[C@@H](O)[C@H](O)[C@H]2O)[C@H]1O` is reported as 2.29 and 1.1 and 2.76 and 1.16 (refers to: SCD-1; ethanol-fed mice, hepatic SIRT1 knockdown (AAV8-TBG-SIRT1), liver; dose not given, high dose, unit not given; reference: AAV8-TBG-Null ethanol group).
`COc1ccccc1N1CCN(CCN(C(=O)C2CCCCC2)c2ccccn2)CC1` has an IC50 of 10000 nM (Plasmodium falciparum; HB3).
`CC(C)[C@@H]1NC(=O)[C@@H](CCCCN)NC(=O)[C@H]([C@@H](C)O)NC(=O)[C@@H](CCCCN)NC(=O)[C@H](Cc2c[nH]c3ccccc23)NC(=O)[C@@H](C)NC(=O)[C@@H](C(C)C)NC(=O)[C@@H](C)NC(=O)[C@H](Cc2c[nH]c3ccccc23)NC(=O)[C@@H](Cc2c[nH]c3ccccc23)NC1=O` gave an IC90 of greater than 16 µg/mL (Naegleria fowleri; trophozoites).
With `CSc1nc2nc(C)c(Cc3cccc(C(F)(F)F)c3)c(C)n2n1` the EC50 ratio was 3.9 (Plasmodium falciparum; parasite growth, SYBR Green; 72 h; reference: 3D7-E182D over 3D7).

Repeated from above:
For `CN(C)c1ccc(O)c2c1C[C@H]1C[C@H]3[C@H](N(C)C)C(O)=C(C(N)=O)C(=O)[C@@]3(O)C(O)=C1C2=O`, the IC50 was 3980 nM (Plasmodium falciparum; Dd2).
`CNC(=O)c1cc(Cl)cc(C)c1NC(=O)c1cc(Br)nn1-c1ncccc1Cl`: “corrected larval mortality” 79.2% (Spodoptera litura; Brassica oleracea field; 25 ppm, 72 h, 5% water-dispersible granule).
